Experimental data from different studies.
Each numbered part is a random draw from the data of one study; scales do not carry over between parts.

Set 1 — method: protein binding microarray; molecule type: double-stranded DNA, one strand shown; sample: in vitro; concentration: not given; reference: not given; reading: higher = stronger binding; endpoint: E-score
Target: Histone acetyltransferase KAT6A, winged helix 1, GST fusion (KAT6A, Homo sapiens, UniProt Q92794, residues 1-85)
Setting: 8-mer, flanks averaged, mean of 2 arrays, mostly near background
Target sequence (chain): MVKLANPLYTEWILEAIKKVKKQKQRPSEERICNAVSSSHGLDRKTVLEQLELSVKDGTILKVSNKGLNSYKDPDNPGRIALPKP
GCGTTGCA: 0.102
TCGAGGCA: -0.0873
AACGCATT: 0.179

Set 2 — method: universal PBM; molecule type: double-stranded DNA, one strand shown; sample: in vitro; concentration: not given; reading: higher = stronger binding; endpoint: E-score
Target: Sal-like protein 4, full length isoform B (SALL4, Homo sapiens, UniProt Q9UJQ4-2, residues 1-616)
Setting: 8-mer, flanks averaged, mean of replicates
Construct (chain): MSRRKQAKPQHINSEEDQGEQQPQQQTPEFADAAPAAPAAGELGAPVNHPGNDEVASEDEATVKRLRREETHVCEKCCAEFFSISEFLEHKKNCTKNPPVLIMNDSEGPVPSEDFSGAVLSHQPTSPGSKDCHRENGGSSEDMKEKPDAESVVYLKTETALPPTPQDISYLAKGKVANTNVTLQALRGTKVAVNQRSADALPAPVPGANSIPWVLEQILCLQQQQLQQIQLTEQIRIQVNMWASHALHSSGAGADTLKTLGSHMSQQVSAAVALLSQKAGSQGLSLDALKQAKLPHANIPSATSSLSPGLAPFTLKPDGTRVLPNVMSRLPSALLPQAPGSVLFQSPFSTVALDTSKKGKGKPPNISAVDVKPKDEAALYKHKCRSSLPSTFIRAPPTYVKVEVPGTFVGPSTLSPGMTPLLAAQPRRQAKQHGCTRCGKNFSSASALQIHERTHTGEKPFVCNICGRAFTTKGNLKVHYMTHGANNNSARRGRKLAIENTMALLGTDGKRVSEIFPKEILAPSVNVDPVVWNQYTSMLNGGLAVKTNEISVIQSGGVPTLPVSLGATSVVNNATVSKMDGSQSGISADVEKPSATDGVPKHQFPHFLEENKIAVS
AGTTGGCA: 0.0721
AATCCTAG: 0.174
CCCGTATA: 0.03
ATCGTTAA: 0.143

Set 3 — method: aptamer microarray, sandwich; molecule type: DNA with 2'F-ANA; sample: in vitro; concentration: 200 nM; with: Cy3 exosite-II aptamer, 400 nM; reading: higher = stronger binding; endpoint: mean fluorescence intensity
Target: Prothrombin, mature alpha-thrombin (F2, Homo sapiens, UniProt P00734)
Setting: whole 15-mer aptamer, many near background
GGTTGGTGTGGTTGG (2'F-ANA at 1 3 4 5 7 8 11 12 14): 60.9 a.u.
GGTTGGTGTGGTTGG (2'F-ANA at 1 2 4 5 9 10 12): 45.8 a.u.
GGTTGGTGTGGTTGG (2'F-ANA at 6 7 8 9 11 13 14 15): 155 a.u.
GGTTGGTGTGGTTGG (2'F-ANA at 1 2 4 6 7 9 10 11 13 14): 51.3 a.u.

Mixed results
PhoQ, residues 284 288 289 292 302 303 TNSAEL
fold induction (PhoP, residues 12 14 15 18 19 NNFVT (Escherichia coli, UniProt P23836); Sort-seq, item: YFP reporter; E. coli; PhoQ-PhoP variant library, with: 10 µM Mg2+; reference: high Mg2+ state, higher = stronger signaling): 1.77

Excerpt of the above (set 3):
GGTTGGTGTGGTTGG (2'F-ANA at 6 7 8 9 11 13 14 15): 155 a.u.
GGTTGGTGTGGTTGG (2'F-ANA at 1 2 4 6 7 9 10 11 13 14): 51.3 a.u.
